Assay results gathered from unrelated publications.
Each numbered part is a random draw from the data of one study; scales do not carry over between parts.

Study 1
Target: Histone acetyltransferase KAT6A, winged helix 2, GST fusion (KAT6A, Homo sapiens, UniProt Q92794, residues 85-181)
Method: protein binding microarray
Molecule type: double-stranded DNA, one strand shown
Sample: in vitro
Concentration: not given
Notes: 8-mer, flanks averaged, mean of 2 arrays, mostly near background
Reference: not given
Direction: higher = stronger binding
Measurement: E-score
Residues (chain): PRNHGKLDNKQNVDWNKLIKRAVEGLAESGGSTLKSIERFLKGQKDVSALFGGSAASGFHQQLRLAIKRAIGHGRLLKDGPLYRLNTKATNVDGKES
ATTCGAAC: 0.0852
AGGTGTTA: -0.0853
ACATATAG: -0.114
GATTAAGA: -0.0622
AATGGTCG: -0.0359
AGATCTTA: -0.0481
ATATAAAA: 0.121
GGTGACCA: -0.0883
AAATCCGT: -0.0579

Study 2
Target: Fragile X messenger ribonucleoprotein 1, C-terminal low-complexity region (Fmr1, Mus musculus, UniProt P35922)
Method: RNA Bind-n-Seq
Molecule type: RNA
Sample: in vitro
Concentration: 200 nM
Notes: whole 134-nt RNA, ends assumed
With: 150 mM LiCl
Reference: input library
Direction: higher = stronger binding
Measurement: log2 enrichment
Each molecule: 7-deaza-guanosine replaces G
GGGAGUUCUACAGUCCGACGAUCGUCCUGUGCUACACAUCGUAUGUACCGAAUCGGGGAAAGGGGUUUUUGGGGAAAGGGGAAAGUAUUAUGUUACGCCGUUCGGAUCUGCACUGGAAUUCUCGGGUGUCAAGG: -0.213
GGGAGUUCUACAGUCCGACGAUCCACAGACAACACGCACCCACAUAGACACAGAGGGAAGGGGUUGGGAUGGGGACAGGGUGCACAGCAGGGCGGGGUAGGACCCCAGCCCCUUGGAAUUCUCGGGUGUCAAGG: 0.579
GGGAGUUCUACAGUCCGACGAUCUGGCCCUGGUGGCAUGCGGGGAGGAAGAGGUGGCCUCAUGGAUCGUGGUGGUCCCGGUGGAAUGUUCGGAGGUGGCCGUGGUGGAGACAGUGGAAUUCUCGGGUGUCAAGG: -0.233
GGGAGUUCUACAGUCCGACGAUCUCCUGUGCUACACAUCGUAUGUACCGAAUCGGGAAAAAAAGGGUUUUUUUGGGAAAGGGAAAGUAUUAUGUUACGCCGUUCGGAUCUGCAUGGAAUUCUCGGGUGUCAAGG: -2.25
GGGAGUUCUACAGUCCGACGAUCAAGUCCUGUGCUACACAUCGUAUGUACCGAAUCGGGGUUUGGGGAGGGGUUUGGGGAAAGUAUUAUGUUACGCCGUUCGGAUCUGCACUUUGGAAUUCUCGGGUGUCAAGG: -0.74
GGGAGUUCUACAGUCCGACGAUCCACAGACAACACCCACCCACACAGACACAGAGGGAAGGGGUUGGGAUGGGGACAGGGUGCACAGCAGGGCGGGGUAGGACCCCAGCCCCUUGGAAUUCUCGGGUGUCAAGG: -0.696
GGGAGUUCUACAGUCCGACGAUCGCAGGAAGUAAAAACAAAUUGAAAUGCUUCGGAUAGUGGCAGGGGUGGGGGUUGCUAAGGAAAGGGUGGGAUGGGAGUGGGUAAAGAGUUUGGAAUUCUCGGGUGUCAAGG: 1.46
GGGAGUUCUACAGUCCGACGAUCUCAAGUCCUGUGCUACACAUCGUAUGUACCGAAUCGGAAAGGAAAGGUUUUUGGAAAGUAUUAUGUUACGCCGUUCGGAUCUGCACUUCCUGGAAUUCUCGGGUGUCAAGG: -0.919

Study 3
Target: Sal-like protein 4, full length isoform B (SALL4, Homo sapiens, UniProt Q9UJQ4-2, residues 1-616)
Method: universal PBM
Molecule type: double-stranded DNA, one strand shown
Sample: in vitro
Concentration: not given
Notes: 8-mer, flanks averaged, mean of replicates
Direction: higher = stronger binding
Measurement: E-score
CGCTCAAG: -0.182
CAGGGTAG: -0.253
GACTTGCC: -0.24
CCTCGCGC: -0.258
TAGTGCCA: -0.172
AAACTGGC: -0.172
CGATTTGC: -0.0687
ACGCCATA: 0.144
TCCAGTAA: -0.0212
CCTATCAC: -0.13
CAGGACCA: -0.227

Other studies, line by line
PhoQ, residues 284 288 289 292 302 303 TAVSDG  fold induction (PhoP, residues 12 14 15 18 19 NHTVL (Escherichia coli, UniProt P23836); Sort-seq, measured: YFP reporter; E. coli; PhoQ-PhoP variant library, with: 10 µM Mg2+; reference: high Mg2+ state, higher = stronger signaling): 10.4

Excerpt of the above (study 2):
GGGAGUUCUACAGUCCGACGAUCCACAGACAACACGCACCCACAUAGACACAGAGGGAAGGGGUUGGGAUGGGGACAGGGUGCACAGCAGGGCGGGGUAGGACCCCAGCCCCUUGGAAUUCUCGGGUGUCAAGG: 0.579
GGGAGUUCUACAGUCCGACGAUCUGGCCCUGGUGGCAUGCGGGGAGGAAGAGGUGGCCUCAUGGAUCGUGGUGGUCCCGGUGGAAUGUUCGGAGGUGGCCGUGGUGGAGACAGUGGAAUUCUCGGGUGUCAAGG: -0.233
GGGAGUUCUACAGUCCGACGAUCUCCUGUGCUACACAUCGUAUGUACCGAAUCGGGAAAAAAAGGGUUUUUUUGGGAAAGGGAAAGUAUUAUGUUACGCCGUUCGGAUCUGCAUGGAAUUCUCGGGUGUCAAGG: -2.25
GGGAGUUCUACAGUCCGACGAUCAAGUCCUGUGCUACACAUCGUAUGUACCGAAUCGGGGUUUGGGGAGGGGUUUGGGGAAAGUAUUAUGUUACGCCGUUCGGAUCUGCACUUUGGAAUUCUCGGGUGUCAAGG: -0.74
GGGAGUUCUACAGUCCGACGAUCCACAGACAACACCCACCCACACAGACACAGAGGGAAGGGGUUGGGAUGGGGACAGGGUGCACAGCAGGGCGGGGUAGGACCCCAGCCCCUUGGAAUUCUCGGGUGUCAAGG: -0.696
